Published values of several laboratories.
Every numbered part comes from another study and shows a few of its results, in no order.
UniProt P23975, sequence (whole entry, looked up): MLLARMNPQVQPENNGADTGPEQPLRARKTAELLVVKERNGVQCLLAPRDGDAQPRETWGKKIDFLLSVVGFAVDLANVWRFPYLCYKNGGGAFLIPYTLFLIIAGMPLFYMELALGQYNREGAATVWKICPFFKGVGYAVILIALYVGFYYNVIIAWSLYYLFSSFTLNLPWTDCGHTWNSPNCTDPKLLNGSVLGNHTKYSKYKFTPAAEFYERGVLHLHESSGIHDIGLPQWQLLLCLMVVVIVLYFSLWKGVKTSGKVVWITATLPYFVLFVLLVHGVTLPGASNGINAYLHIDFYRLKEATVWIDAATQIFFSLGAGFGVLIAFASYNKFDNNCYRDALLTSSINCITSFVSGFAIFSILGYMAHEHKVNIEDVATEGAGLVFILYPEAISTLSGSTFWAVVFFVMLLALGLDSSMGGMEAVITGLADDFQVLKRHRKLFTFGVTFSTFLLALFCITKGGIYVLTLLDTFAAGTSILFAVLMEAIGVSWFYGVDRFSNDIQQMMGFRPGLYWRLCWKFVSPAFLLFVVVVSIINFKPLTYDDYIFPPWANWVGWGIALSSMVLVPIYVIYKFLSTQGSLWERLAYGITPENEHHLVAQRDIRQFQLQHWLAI

Series 1 — mode: inhibitor; tested at: concentration not given; setting: absolute value; with: with minus without ssDNA
Target: DNA polymerase theta, helicase domain (POLQ, Homo sapiens, UniProt O75417)
UniProt O75417, sequence (whole entry, looked up): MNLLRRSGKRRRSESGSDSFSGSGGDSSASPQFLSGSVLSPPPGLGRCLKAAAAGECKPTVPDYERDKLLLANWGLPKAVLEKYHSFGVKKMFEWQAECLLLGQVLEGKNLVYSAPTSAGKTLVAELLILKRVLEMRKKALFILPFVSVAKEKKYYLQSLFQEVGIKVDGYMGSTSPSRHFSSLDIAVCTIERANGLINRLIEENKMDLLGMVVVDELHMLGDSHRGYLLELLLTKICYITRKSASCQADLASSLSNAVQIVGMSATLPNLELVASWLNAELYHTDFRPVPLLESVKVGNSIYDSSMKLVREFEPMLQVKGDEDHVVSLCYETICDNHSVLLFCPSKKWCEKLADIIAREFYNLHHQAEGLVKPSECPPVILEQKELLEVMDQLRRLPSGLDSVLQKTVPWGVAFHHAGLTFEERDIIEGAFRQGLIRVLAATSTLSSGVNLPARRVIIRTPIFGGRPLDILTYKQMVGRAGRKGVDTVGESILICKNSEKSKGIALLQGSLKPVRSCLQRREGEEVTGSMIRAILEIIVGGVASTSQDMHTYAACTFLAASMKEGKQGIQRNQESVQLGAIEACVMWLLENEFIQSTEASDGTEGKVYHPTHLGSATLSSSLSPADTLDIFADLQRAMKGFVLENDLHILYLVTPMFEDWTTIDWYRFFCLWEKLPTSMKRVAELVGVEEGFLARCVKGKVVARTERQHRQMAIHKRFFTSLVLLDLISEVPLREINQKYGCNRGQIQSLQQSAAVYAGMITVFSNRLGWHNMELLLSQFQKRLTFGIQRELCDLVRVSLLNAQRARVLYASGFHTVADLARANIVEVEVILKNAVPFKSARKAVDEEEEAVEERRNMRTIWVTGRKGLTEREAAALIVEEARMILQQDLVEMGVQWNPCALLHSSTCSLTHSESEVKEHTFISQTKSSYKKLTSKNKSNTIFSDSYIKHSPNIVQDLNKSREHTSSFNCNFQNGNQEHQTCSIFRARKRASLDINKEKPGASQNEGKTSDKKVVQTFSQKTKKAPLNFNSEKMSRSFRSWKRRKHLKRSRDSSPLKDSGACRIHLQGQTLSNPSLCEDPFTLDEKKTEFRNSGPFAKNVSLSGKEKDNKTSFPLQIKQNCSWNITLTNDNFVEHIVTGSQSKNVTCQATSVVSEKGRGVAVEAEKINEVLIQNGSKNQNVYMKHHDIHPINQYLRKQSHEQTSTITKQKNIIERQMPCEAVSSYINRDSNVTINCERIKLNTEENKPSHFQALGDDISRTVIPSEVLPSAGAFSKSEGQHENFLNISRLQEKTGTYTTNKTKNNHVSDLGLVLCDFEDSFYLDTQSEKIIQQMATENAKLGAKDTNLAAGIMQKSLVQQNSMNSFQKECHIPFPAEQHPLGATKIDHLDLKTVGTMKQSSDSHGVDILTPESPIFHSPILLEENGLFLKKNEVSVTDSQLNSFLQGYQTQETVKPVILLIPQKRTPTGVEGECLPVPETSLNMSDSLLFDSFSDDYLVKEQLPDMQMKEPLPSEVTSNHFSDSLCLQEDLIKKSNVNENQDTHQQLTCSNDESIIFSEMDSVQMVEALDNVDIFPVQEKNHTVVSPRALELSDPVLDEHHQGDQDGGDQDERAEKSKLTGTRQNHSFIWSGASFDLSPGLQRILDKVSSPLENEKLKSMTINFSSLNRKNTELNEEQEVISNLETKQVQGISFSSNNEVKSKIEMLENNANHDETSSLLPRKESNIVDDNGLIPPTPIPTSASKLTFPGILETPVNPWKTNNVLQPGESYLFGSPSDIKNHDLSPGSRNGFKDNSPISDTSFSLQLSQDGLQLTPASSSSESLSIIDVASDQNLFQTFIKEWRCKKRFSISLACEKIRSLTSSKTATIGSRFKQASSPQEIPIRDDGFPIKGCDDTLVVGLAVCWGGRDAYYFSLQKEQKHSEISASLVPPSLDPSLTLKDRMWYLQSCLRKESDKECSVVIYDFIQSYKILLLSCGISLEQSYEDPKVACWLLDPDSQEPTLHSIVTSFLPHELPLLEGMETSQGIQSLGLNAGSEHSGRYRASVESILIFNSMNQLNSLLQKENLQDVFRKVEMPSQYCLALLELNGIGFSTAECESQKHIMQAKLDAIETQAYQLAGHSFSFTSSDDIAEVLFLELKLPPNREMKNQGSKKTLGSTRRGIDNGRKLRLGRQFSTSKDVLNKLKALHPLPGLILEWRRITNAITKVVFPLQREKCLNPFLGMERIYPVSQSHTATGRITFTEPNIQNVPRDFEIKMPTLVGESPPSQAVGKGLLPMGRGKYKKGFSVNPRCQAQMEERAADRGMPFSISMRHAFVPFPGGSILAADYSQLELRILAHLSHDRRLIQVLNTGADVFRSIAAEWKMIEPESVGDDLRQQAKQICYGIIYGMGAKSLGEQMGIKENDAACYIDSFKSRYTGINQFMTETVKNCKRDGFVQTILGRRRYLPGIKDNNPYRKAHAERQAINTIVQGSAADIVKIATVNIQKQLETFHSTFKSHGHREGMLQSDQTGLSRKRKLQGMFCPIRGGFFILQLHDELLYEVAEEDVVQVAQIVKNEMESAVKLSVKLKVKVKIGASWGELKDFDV
Compound | difference in remaining activity [%]
COc1cc2c(cc1Cc1cccc(Cl)c1F)c(=O)c(C(=O)O)cn2[C@H](CO)C(C)C | 48.4
COc1ccc(S(=O)(=O)c2cnc(SCC(=O)Nc3cc(F)ccc3C)[nH]c2=O)cc1Cl | 20.9
CSc1ccc(/C=C/c2nc3ccccc3n2S(=O)(=O)c2ccc(Br)cc2)cc1 | 15.1
COc1ccc2c(c1)c(CC(=O)O)c(C)n2Cc1ccc(Cl)cc1 | 5.2
CC1(C)Cc2c(-c3ccccc3)c(-c3ccc(Cl)cc3)c(CC(=O)O)n2C1 | 17.8
O=C(Nc1cc(-c2ccccc2)sc1C(=O)O)c1cccc(F)c1 | 20.9
CC1=Nc2cc(C(=O)NCCc3ccc(Cl)cc3)ccc2Sc2ccc(C)cc21 | 2.38
N#Cc1c(O)c2c(-c3ccc(-c4ccccc4O)cc3)csc2[nH]c1=O | 2.53

Series 2 — method: KINOMEscan; tested at: 1000 nM; reference: control
SMILES: Cc1cc2c(C(N)=O)c(N)n(-c3c(C)ccc(O)c3C)c2nc1C
target | remaining binding [%]
WEE1 | 62
MKNK2 | 100
CSF1R | 1.2
BRAF | 0.8
SRC | 0.15
LCK | 1.3
CSNK1A1 | 95
FRK | 0.95

Series 3 — host: human; medium: microsomes or S9; tested at: 2 µM; time: 0.5 h
Compound | remaining compound [%]
Cc1ccc(-n2ccnc2S(=O)(=O)Cc2noc(C)n2)c(C)c1 | 85.3
COC(=O)c1ccc(C(=O)N2CCCN(C(=O)C[C@H](N)Cc3cc(F)c(F)cc3F)CC2)cc1 | 67.5
O=C(CCn1[nH]c(=O)c2ccccc2c1=O)NN(Cc1ccccc1)Cc1ccccc1 | 52.6
CC(C)(C)OC(=O)N[C@@H](CC(=O)N1Cc2ccccc2CN1C(=O)OCc1ccccc1)Cc1cc(F)c(F)cc1F | < 1
O=S1(=O)N=C(N(CCc2ccccc2)Cc2ccccc2)c2ccccc21 | 37.2
CCOc1cc(=O)n2c(c1C(=O)Nc1ccccc1C(=O)OC)CCCC2 | 37.3
Cc1cc2c3c(c1)C1(NC(=O)c4ccccc4N1)C(=O)N3C1(CCCCCC1)CC2(C)C (stereo not shown) | 5.87
CN(C)c1ccc(-c2nc3n(c2NC(C)(C)CC(C)(C)C)CCNC3)cc1 | 19.7

Mixed results
Compound | target | assay | setting | quantity | value
N#CN1CC[C@H](C(=O)Nc2nc3c(s2)CN(C(=O)CN=[N+]=[N-])CC3)C1 | Sodium-dependent noradrenaline transporter (SLC6A2, Homo sapiens, UniProt P23975) | binding, radioligand binding | 10 µM | inhibition | 2.61%
